Results of several laboratories.
Values joined by “and” are separate records of one study, mostly repeats; a detail may differ. ± gives the spread as reported.

CC(C)(O)c1ncc([S@](N)(=O)=NC(=O)Nc2c3c(cc4c2CCC4)CCC3)s1  subjects with gastrointestinal adverse events (healthy human subjects; oral, 300 mg, spray-dried dispersion): 17%
CCCCN1C(=O)c2cccc3c(NCCCN4CCOCC4)ccc(c23)C1=O  Stokes shift (DMF): 91 nm
COc1ccc2c(c1)CN(C(=O)CCN1CCC(Cc3ccccc3)CC1)CC[S+]2[O-] (centres unmarked)  fu (human plasma; 7500 ng/mL): 0.268
CN(C(=O)C(C)(C)c1cc(C(F)(F)F)cc(C(F)(F)F)c1)c1cnc(N2C[C@H]3COC(O)CN3C[C@H]2CO)cc1-c1ccc(F)cc1CO (some centres unmarked)  fraction unbound in microsomes (human liver microsomes): 0.589
COC(=O)c1ccccc1-c1c2ccc(=[N+](C)C)cc-2oc2c1ccc1cccc(O)c12  Stokes shift (12.5 mM aqueous NaOH; pH 12.1, 10% DMSO): 148 nm
CC(C)Cc1ccc(C(C)C(=O)N[C@@H](CCCCNC(=O)CCOCCOCCOCCOCCOCCOCCNC(=O)CN2CCN(CC(=O)[O-])CCN(CC(=O)[O-])CCN(CC(=O)[O-])CC2)C(=O)Nc2cccc3c(C(=O)NCC(=O)N4CC(F)(F)C[C@H]4C#N)ccnc23)cc1.[177Lu+3] (some centres unmarked)  radiochemical stability (PBS; 4 h, 37 °C, 177Lu-labelled): 99.21 ± 0.2%
O=C([O-])CN1CCN(CC(=O)[O-])CCN(CC(CCCc2ccccc2[N+](=O)[O-])N(CC(=O)[O-])CC(=O)[O-])CC1.[177Lu+3] (centres unmarked)  intact radiolabelled complex (TLC; human serum; 134 h, pH 7, 37 °C): 99.9 ± 0.1%
[123I]c1ccc2nc(-c3ccc(-n4ccnn4)nc3)cn2c1  tracer uptake (male Wistar rat, spleen; intravenous, 4 MBq, 3 h): 0.055 %ID/g
COc1cc(OC)c2c(=O)cc(-c3cc(C)c(OCCCN4CCN(C)CC4)c(C)c3)oc2c1  clearance (Sprague Dawley rat, male, plasma; oral, 20 mg/kg): 48.3 ± 8.33 mL/min/kg
C=CC(=O)Nc1cc(Nc2nccc(-c3cn(C)c4ccccc34)n2)c(OC)cc1N(C)CCNC  recovery (storage stability; human plasma; 72 h, -80 °C, LLOQ level): 92.3%
CC(C)C[C@@H](NC(=O)[C@H](NC(=O)[C@H]1CCCN1)[C@H](C)O)C(=O)N[C@H](Cc1c[nH]cn1)C(=O)N[C@@H](C(=O)N[C@H](Cc1c[nH]cn1)C(=O)N[C@H](CC(N)=O)C(=O)N[C@H](CCCNC(=N)N)C(=O)N[C@H](CCCNC(=N)N)C(=O)N[C@H](CCCNC(=N)N)C(=O)N[C@H](CCCNC(=N)N)C(=O)N[C@H](CCCNC(=N)N)C(N)=O)[C@H](C)O  glucose (Beagle dog, blood; oral, 3 mg/kg daily, 3 months): 5.2 mmol/L
COCC1CN(C2CCN(c3cc(OC)c(Nc4ncc(Br)c(Nc5ccc6c(c5P(C)(C)=O)OCCO6)n4)cc3C)CC2)C1  AUC(0-t) (EGFR-mutant NSCLC patients, plasma; oral, 90 mg single dose, geometric mean): 13400 ng·h/mL
CCCN(C)c1cc(C(F)(F)F)nc(SCCC(=O)NCc2ccco2)n1  plasma uric acid (Wistar rat, plasma; intraperitoneal, 25 mg/kg, 2 h post-dose; relative to: vehicle control): no effect
CCCCN1C(=O)c2cccc3c(NCCCCCN4CCOCC4)ccc(c23)C1=O  fluorescence quantum yield (toluene): 1
CN([O-])C(=O)CN1CCNCCN(CC(=O)N(C)[O-])CC1.[89Zr+4]  tracer uptake (mouse, pancreas; intravenous, 1 h): 0.2 %ID/g
OCC1OC(n2cnc3c(NCc4ccc(Br)s4)ncnc32)C(O)C1O (centres unmarked)  fraction unbound (equilibrium dialysis; mouse plasma; 0.05 µg/mL, 4 h, pH 7.4): 0.058
CN1CCC[C@]1(C)/C=C/S(=O)(=O)NC(=O)Nc1c2c(cc3c1CCC3)CCC2  subjects with adverse event (measured: Pyrexia, possibly related; human; oral, 50 mg twice daily, 14 days, multiple ascending dose): 16.7%
O=C(Nc1cnccc1-c1ccc([18F])cc1)c1ccnc(NC(=O)C2CC2)c1  SUV (ex vivo gamma counting; GSK-3β transgenic mice, late-stage, heart; intravenous, 1.26 MBq/animal, 120 min, mean, no P-gp inhibitor): 0.23
N#C[C@@H]1CC(F)(F)CN1C(=O)CNC(=O)c1ccnc2c(NC(=O)C(CCCCNC(=O)CCOCCOCCOCCOCCOCCOCCNC(=O)CN3CCN(CC(=O)[O-])CCN(CC(=O)[O-])CCN(CC(=O)[O-])CC3)NC(=O)CCCc3ccc(I)cc3)cccc12.[68Ga+3] (some centres unmarked)  radiochemical stability (human serum; 60 min, 37 °C, 68Ga-labelled): 98.83 ± 0.1%
C=CC(=O)Nc1cc(Nc2nccc(-c3c[nH]c4ccccc34)n2)c(OC)cc1N(C)CCN(C)C  recovery (storage stability; human dried blood spots; 5 h, on ice, LLOQ level): 88.1%
C=CC(=O)Nc1cccc(Cn2ncc3cnc(Nc4cnn(CCOC)c4)nc32)c1  remaining compound (mouse, CD-1, both sexes, whole blood; 5 µM, 15 min): 85.3%
CCCCCCCOc1ccc(CC[C@](N)(CO)COP(=O)(O)O)cc1C(F)(F)F  renal clearance (healthy men, urine and plasma; oral, 0.125 mg once daily, day 21, fed state): 0.00733 mL/min
C=C(NC(=O)c1csc(-c2nc3c(cc2O)-c2nc(cs2)C(=O)NC(C(C)O)C(=O)NC(=C(C)OC)c2nc(cs2)C(=O)NC2c4nc(cs4)C(=O)NC(COC(=O)c4c5c6c(cccc6n4O)COC(=O)C(OC4CC(C)(O)C(N(C)C)C(C)O4)C2OC5)c2nc-3cs2)n1)C(N)=O (centres unmarked)  Tmax (cynomolgus monkey, plasma; intravenous, 9 mg/kg, single dose, infusion): 19.2 min
CC[C@H](C)[C@@H]1NC(=O)[C@H](Cc2ccc(O)cc2)NC(=O)CCCSC[C@@H](C(=O)N(CC(=O)N[C@@H](CC(C)C)C(=O)NCC(N)=O)Cc2ccc(F)cc2)NC(=O)[C@H](CC(N)=O)NC(=O)[C@H](CCC(N)=O)NC1=O  terminal half-life (human, plasma; intranasal, 400 µg, single dose): 36 min
CN(O)C(=O)CCC(=O)NCCCN(CCCCN(CCCNC(=O)CCC(=O)N(C)O)C(=O)CCC(=O)N(C)O)C(=O)CCC(=O)N(C)O.[89Zr]  intact compound (0.9 % NaCl saline; 1 days, pH 4.5, 37 °C): 98.9 ± 0.6%
Cc1nc(N)nc2c1C(=O)N[C@@H](c1ccc(F)cc1-c1cccc(O[11CH3])n1)C2  SUV (ex vivo biodistribution; mice, MDA-MB-231 subcutaneous xenograft, plasma; 60 min post-injection, baseline, vehicle pre-treatment): 0.3 ± 0.02
N#C[C@@H]1CC(F)(F)CN1C(=O)CNC(=O)c1ccnc2c(NC(=O)C(N)CCCCNC(=O)CCOCCOCCOCCOCCOCCOCCNC(=O)CN3CCN(CC(=O)[O-])CCN(CC(=O)[O-])CCN(CC(=O)[O-])CC3)cccc12.[68Ga+3] (some centres unmarked)  radiochemical stability (human serum; 120 min, 37 °C, 68Ga-labelled): 99.14 ± 0.3%
CNc1cc(N)c(C(N)=O)cn1  plasma concentration (Han Wistar rats, male, plasma; oral, 30 mg/kg, 2.00 h): 14.9 µM
COc1ccc(/C=C/c2nc3c(Cl)ncnc3[nH]2)cc1OC  purity (HPLC; solution; after 1 h light exposure): 99.2%
CCCCN1C(=O)c2cccc3c(NCCCCCCCCN4CCOCC4)ccc(c23)C1=O  fluorescence lifetime (ethyl acetate): 9.8 ns
Cc1cc(-c2ccc(C(=O)[C@@H]3CCCC[C@H]3C(=O)Nc3cnn4c3C(=O)NCC4)cc2)[nH]n1  cumulative recovery of radioactivity (human, urine; oral, 200 mg, 0-96 h; relative to: dose): 5.85%
N#C[C@@H]1CC(F)(F)CN1C(=O)CNC(=O)c1ccnc2c(NC(=O)CCOCCOCCOCCOCCOCCOCCNC(=O)[C@H](CCCCNC(=O)CN3CCN(CC(=O)[O-])CCN(CC(=O)[O-])CCN(CC(=O)[O-])CC3)NC(=O)CCCc3ccc(I)cc3)cccc12.[177Lu+3]  radiochemical stability (PBS; 24 h, 37 °C, 177Lu-labelled): 98.1 ± 3.2%
O=C1c2sc(-c3ccc(N4CCC(F)C4)nc3F)nc2CCN1c1cccnc1 (centres unmarked)  parent fraction (HPLC; rhesus monkey, plasma; intravenous, 30.02 min): 0.247
COc1cc2c(cc1O)CCN1C[C@@H](CC(C)C)[C@H](O)C[C@H]21  MRT(0-t) (measured: non-deuterated analyte; healthy human male, plasma; oral, 25 mg, geometric mean, [14C]-tetrabenazine dosed): 586 min
Cc1nn(-c2nc3c(F)cc(F)cc3s2)c(O)c1C(c1ccc(C(F)(F)F)cc1)c1c(C)nn(-c2nc3c(F)cc(F)cc3s2)c1O  CL observed (ICR mouse, plasma; intravenous, 5 mg/kg): 0.682 mL/min/kg and 2.11 mL/min/kg and 1.72 mL/min/kg
CCCCN1C(=O)c2cccc3c(NCCN4CCOCC4)ccc(c23)C1=O  fluorescence quantum yield (chloroform): 0.2
N[C@@H](CNC(=O)N[C@@H](CS)C(=O)NCC(=O)O)C(=O)O  brain exposure per dose (mouse C57BL/6, brain homogenate; intraperitoneal, 500 mg/kg, 2 h): 14.7 ± 6.68 µM·h/dose
Cc1nc2cccc(OCC(C)(C)C(=O)NC(C)C)c2c(N)c1C(=O)O.O=P(O)(O)O  Tmax (male Sprague-Dawley rat, plasma; oral, 30 mg/kg): 26.4 min
C/C(N)=N/C(=N\S(=O)(=O)c1ccc(C(F)(F)F)cc1)N1C[C@H](c2ccccc2)C(c2ccc(Cl)cc2)=N1  Tmax (Beagle dog, plasma; oral, 36 mg/kg, observed value): 60 min
O=C(Nc1cnccc1-c1ccc([18F])nc1)c1ccnc(NC(=O)C2CC2)c1  mean SUV (ex vivo gamma counting; FVB/NJ mice, both sexes, adipose tissue; intravenous, 120 min): 0.051
COc1cccc(OC)c1-c1cc(C(=O)NC2(C(=O)O)C3CC4CC(C3)CC2C4)nn1-c1ccc(C(=O)N(C)CCOCCOCCN(C)C(=O)[C@H](CCCCNC(=O)[C@H](CC(C)C)NC(=O)C2OC2C(=O)O)NC(=O)CN2CCN(CC(=O)[O-])CCN(CC(=O)[O-])CCN(CC(=O)[O-])CC2)cc1C(C)C.[177Lu+3] (mixture of isomers)  tumour-to-stomach ratio (mouse HT-29 xenograft; 4 h, biodistribution; relative to: tumour over stomach): 5.59
CCCCN1C(=O)c2cccc3c(NCCCCCCCCCCN4CCOCC4)ccc(c23)C1=O  Stokes shift (acetonitrile): 91 nm
C[C@@]1(c2nc(-c3ccc(F)c4cn[nH]c34)no2)CCCN(C(=O)c2ccc(F)nc2)C1  clearance (C57BL/6J mice, male, plasma; intraperitoneal, 20 mg/kg): 29.7 mL/min/kg
O=C1c2sc(-c3ccc(N4CCC(CO)CC4)nc3F)nc2CCN1c1cccnc1  parent fraction (HPLC; rhesus monkey, plasma; intravenous, 6 min): 0.84

A few entries again:
CN([O-])C(=O)CN1CCNCCN(CC(=O)N(C)[O-])CC1.[89Zr+4]  tracer uptake (mouse, pancreas; intravenous, 1 h): 0.2 %ID/g
COc1cc(OC)c2c(=O)cc(-c3cc(C)c(OCCCN4CCN(C)CC4)c(C)c3)oc2c1  clearance (Sprague Dawley rat, male, plasma; oral, 20 mg/kg): 48.3 ± 8.33 mL/min/kg
O=C1c2sc(-c3ccc(N4CCC(CO)CC4)nc3F)nc2CCN1c1cccnc1  parent fraction (HPLC; rhesus monkey, plasma; intravenous, 6 min): 0.84
Cc1nc(N)nc2c1C(=O)N[C@@H](c1ccc(F)cc1-c1cccc(O[11CH3])n1)C2  SUV (ex vivo biodistribution; mice, MDA-MB-231 subcutaneous xenograft, plasma; 60 min post-injection, baseline, vehicle pre-treatment): 0.3 ± 0.02
